Measurements pooled from the literature.
Each numbered part is a random draw from the data of one study; scales do not carry over between parts. Several values in a cell are separate wells, animals, samples, runs or records.
UniProt Q9H0K1, sequence (whole entry, looked up): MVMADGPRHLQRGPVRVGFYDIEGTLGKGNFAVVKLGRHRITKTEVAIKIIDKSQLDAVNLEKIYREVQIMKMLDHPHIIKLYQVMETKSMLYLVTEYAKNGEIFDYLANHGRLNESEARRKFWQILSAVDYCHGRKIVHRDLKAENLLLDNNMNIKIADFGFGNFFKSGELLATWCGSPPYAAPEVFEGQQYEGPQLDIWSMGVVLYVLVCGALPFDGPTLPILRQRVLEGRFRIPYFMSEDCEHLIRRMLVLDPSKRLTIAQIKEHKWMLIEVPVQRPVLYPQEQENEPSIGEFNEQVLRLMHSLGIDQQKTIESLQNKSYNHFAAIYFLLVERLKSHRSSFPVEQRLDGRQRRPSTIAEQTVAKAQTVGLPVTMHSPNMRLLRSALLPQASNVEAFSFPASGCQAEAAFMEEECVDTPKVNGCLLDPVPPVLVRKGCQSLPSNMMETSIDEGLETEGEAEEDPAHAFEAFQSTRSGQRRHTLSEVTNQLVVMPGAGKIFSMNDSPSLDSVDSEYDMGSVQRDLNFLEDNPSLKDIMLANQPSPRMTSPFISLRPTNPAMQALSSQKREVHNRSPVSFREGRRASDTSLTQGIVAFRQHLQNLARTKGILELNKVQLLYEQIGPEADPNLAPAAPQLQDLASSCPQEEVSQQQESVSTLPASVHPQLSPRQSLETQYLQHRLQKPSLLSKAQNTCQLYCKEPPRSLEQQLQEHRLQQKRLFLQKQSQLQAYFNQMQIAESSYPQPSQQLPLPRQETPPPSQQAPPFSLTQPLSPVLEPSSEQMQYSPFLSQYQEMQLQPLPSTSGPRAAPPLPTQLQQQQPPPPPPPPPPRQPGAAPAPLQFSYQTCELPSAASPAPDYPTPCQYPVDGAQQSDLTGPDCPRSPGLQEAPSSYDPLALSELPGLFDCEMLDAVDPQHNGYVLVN
UniProt Q9UF33, sequence (whole entry, looked up): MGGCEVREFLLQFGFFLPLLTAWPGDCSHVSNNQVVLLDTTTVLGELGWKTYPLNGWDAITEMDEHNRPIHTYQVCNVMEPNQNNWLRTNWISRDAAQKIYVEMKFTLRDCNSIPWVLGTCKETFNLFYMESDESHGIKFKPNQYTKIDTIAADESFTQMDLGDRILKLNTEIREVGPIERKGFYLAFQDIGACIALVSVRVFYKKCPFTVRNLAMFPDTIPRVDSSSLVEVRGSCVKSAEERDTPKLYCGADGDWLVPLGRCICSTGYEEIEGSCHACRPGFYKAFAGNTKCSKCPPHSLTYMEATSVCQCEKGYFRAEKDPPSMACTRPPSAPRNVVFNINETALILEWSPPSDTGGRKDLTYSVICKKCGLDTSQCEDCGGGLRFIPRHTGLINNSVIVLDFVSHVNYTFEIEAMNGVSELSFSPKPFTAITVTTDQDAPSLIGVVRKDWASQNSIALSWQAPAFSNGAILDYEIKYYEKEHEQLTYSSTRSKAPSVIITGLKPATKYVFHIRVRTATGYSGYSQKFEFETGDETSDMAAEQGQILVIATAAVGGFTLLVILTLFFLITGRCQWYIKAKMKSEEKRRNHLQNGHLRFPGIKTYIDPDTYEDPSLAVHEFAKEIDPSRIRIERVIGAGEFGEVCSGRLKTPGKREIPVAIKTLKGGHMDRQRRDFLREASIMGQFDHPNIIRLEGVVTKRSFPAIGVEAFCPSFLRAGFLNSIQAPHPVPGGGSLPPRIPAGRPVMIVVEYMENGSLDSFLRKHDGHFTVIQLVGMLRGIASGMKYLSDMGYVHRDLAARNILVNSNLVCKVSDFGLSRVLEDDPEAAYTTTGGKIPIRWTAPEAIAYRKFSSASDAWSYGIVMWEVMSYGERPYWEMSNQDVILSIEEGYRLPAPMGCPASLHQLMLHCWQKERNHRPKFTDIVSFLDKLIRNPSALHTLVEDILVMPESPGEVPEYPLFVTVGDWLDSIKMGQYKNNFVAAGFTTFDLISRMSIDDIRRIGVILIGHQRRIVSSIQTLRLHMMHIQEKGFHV
UniProt P07947, sequence (whole entry, looked up): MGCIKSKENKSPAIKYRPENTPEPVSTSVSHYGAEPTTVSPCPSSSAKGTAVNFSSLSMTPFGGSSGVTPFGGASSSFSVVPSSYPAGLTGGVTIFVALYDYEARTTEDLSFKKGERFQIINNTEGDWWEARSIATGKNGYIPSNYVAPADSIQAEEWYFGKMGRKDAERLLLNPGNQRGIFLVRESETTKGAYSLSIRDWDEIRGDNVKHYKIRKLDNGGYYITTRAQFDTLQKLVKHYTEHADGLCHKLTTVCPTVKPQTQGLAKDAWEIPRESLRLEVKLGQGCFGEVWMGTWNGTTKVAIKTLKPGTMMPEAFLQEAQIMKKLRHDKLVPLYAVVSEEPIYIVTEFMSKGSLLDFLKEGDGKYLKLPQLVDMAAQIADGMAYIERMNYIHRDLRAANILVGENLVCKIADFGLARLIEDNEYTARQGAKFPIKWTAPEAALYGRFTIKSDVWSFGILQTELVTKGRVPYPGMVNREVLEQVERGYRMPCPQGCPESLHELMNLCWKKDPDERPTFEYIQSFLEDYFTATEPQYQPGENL
UniProt Q06418, sequence (whole entry, looked up): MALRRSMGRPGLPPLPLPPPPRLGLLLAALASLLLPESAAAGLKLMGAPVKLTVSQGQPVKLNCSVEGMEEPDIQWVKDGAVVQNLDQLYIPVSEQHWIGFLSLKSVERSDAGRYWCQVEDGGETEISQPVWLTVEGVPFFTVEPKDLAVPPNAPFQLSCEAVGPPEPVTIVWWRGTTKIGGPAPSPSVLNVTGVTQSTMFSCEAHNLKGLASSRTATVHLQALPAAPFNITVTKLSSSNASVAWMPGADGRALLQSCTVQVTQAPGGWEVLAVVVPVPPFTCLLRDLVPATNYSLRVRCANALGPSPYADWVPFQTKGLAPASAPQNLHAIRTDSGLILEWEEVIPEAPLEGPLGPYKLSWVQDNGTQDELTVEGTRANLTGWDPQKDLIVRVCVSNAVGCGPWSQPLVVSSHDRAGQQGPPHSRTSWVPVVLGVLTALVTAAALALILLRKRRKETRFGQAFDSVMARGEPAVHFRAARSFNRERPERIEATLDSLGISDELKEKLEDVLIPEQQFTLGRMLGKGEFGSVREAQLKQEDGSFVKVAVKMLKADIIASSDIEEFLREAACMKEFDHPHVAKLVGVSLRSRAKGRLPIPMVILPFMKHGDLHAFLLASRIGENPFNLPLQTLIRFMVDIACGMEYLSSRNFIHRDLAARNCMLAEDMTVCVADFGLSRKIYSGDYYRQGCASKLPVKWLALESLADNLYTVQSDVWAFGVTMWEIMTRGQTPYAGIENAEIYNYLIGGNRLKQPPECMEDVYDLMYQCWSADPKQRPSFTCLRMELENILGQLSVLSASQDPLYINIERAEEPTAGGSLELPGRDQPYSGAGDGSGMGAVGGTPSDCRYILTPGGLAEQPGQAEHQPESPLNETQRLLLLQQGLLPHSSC
UniProt Q15831, sequence (whole entry, looked up): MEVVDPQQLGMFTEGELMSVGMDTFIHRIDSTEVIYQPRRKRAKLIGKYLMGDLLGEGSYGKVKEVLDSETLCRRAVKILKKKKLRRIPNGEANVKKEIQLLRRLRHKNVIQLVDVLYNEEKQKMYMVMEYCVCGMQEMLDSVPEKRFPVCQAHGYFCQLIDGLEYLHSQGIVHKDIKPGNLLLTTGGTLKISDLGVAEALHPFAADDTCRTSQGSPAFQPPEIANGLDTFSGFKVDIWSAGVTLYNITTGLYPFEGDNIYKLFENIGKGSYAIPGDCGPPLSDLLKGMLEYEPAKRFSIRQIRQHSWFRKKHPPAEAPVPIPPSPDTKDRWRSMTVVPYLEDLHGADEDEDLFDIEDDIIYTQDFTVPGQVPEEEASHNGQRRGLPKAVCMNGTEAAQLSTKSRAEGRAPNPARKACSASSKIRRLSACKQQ

Study 1
SMILES: COc1cc2ncnc(N3CCN(C(=O)Nc4ccc(Oc5ccccc5)cc4)CC3)c2cc1OC
Effect on: enzyme activity
Mode: inhibitor
Tested at: 0.5 µM
Relative to: control
For PAK1 (Homo sapiens, UniProt Q13153): remaining activity read 91.8%.
It gave 106% for remaining activity (YES1 (Homo sapiens, UniProt P07947)).
For IGF1R (Homo sapiens, UniProt P08069): remaining activity read 103%.
For EPHA6 (Homo sapiens, UniProt Q9UF33): remaining activity read 89.6%.
It gave 96.5% for remaining activity (JAK1 (Homo sapiens, UniProt P23458)).
It gave 93% for remaining activity (ACVRL1 (Homo sapiens, UniProt P37023)).
The remaining activity was 95.2% (PAK6 (Homo sapiens, UniProt Q9NQU5)).
It gave 94.9% for remaining activity (MELK (Homo sapiens, UniProt Q14680)).
TYRO3 (Homo sapiens, UniProt Q06418) — remaining activity: 99.6%.
It gave 101% for remaining activity (TEC (Homo sapiens, UniProt P42680)).
It gave 98.3% for remaining activity (FES (Homo sapiens, UniProt P07332)).
For Cyclin-dependent kinase 2, with cyclin E (CDK2, Homo sapiens, UniProt P24941): remaining activity read 92.1%.
It gave 100% for remaining activity (ERBB2 (Homo sapiens, UniProt P04626)).
It gave 97.3% for remaining activity (PRKCQ (Homo sapiens, UniProt Q04759)).
It gave 99.1% for remaining activity (MARK1 (Homo sapiens, UniProt Q9P0L2)).
For CLK2 (Homo sapiens, UniProt P49760): remaining activity read 81.3%.
The remaining activity was 95.7% (EPHA2 (Homo sapiens, UniProt P29317)).
SRPK1 (Homo sapiens, UniProt Q96SB4) — remaining activity: 97.5%.
PAK5 (Homo sapiens, UniProt Q9P286) — remaining activity: 96.8%.
The remaining activity was 96.2% (MAP3K20 (Homo sapiens, UniProt Q9NYL2)).
The remaining activity was 96% (SIK2 (Homo sapiens, UniProt Q9H0K1)).
For CSNK1D (Homo sapiens, UniProt P48730): remaining activity read 103%.
It gave 92.4% for remaining activity (RPS6KB2 (Homo sapiens, UniProt Q9UBS0)).
FLT1 (Homo sapiens, UniProt P17948) — remaining activity: 79%.
It gave 96% for remaining activity (PRKCZ (Homo sapiens, UniProt Q05513)).

Study 2
Host: human
Medium: microsomes or S9
Tested at: 2 µM
Time: 0.5 h
The remaining compound of `O=C(NCc1ccccc1)c1cnc2ccc(S(=O)(=O)Nc3ccc4c(c3)OCCO4)cc2c1O` is reported as 4.91%.
For `CC(C)CN(CC(C)C)S(=O)(=O)c1ccc(NC(=O)C(C)C)cc1`, the remaining compound was less than 1%.
With `Cc1nc(C(C)C)sc1C(C)NCC1CCCS1(=O)=O` (centres unmarked) the remaining compound was 79%.
For `Cn1c(CN2CCN(C(=O)c3ccccc3)CC2)nc2cc(NC(=O)c3ccccc3[N+](=O)[O-])ccc21`, the remaining compound was greater than 99%.
With `Cc1ccc(-c2nccn3cc(C(=O)N(C)Cc4cn(C)nc4C)nc23)cc1` the remaining compound was 25.7%.
With `Cc1nn2c(N(C)C)cc(Cl)nc2c1Br` the remaining compound was 33.1%.

Study 3
SMILES: CNC(=O)Nc1ccc2c(c1)CC[C@@]21OC(=O)N(CC(=O)N(Cc2ccc(F)cc2)[C@@H](C)C(F)(F)F)C1=O
Effect on: cell-free assay
Method: competition with immobilised ligand
Tested at: 1 µM
It gave 96% for remaining binding (CDK13 (Homo sapiens, UniProt Q14004)).
For STK11 (Homo sapiens, UniProt Q15831): remaining binding read 100%.
It gave 88% for remaining binding (SIK2 (Homo sapiens, UniProt Q9H0K1)).
For Non-receptor tyrosine-protein kinase TYK2, JH1 (TYK2, Homo sapiens, UniProt P29597): remaining binding read 91%.
PIK3CA (Homo sapiens, UniProt P42336, Q546K) — remaining binding: 79%.
DYRK1B (Homo sapiens, UniProt Q9Y463) — remaining binding: 81%.

Study 4
Cell line: HaCaT
Tested at: 100 µM
Time: 18 h
For `CNC1(C)C2CCC(C2)C1(C)C` (centres unmarked), the viability was 120%.
`CCc1nn(CCCN2CCN(c3cccc(Cl)c3)CC2)c(=O)n1CCOc1ccccc1` gave a viability of 28.3%.
`NC1C(O)O[C@H](CO)C(O[C@@H]2O[C@H](CO)C(O[C@@H]3O[C@H](CO)[C@@H](O)[C@H](O)[C@H]3N)[C@H](O)C2N)C1O` (some centres unmarked) has a viability of 116%.
With `CC(C)N(CCCCOCC(=O)NS(C)(=O)=O)c1cnc(-c2ccccc2)c(-c2ccccc2)n1` the viability was 67.4%.
`c1ccc(CN(CC2=NCCN2)c2ccccc2)cc1` has a viability of 95.5%.
`COc1ccc(-c2cc(=O)c3c(O)c(OC)c(O)cc3o2)cc1OC` gave a viability of 89%.

Study 5
Host: female C57BL/6 mouse
Medium: plasma
Route: oral
Dose: 10 mg/kg
Time: 1 h
The concentration of `CCOC(=O)CN(C(=O)c1ccn2ncc(-c3ccc(C(=O)NC)cc3)c2c1)c1ccc(Cl)cc1` is reported as 293 nM.
With `CN(C(=O)c1ccn2ncc(-c3ccc(C(N)=O)cc3)c2c1)c1ccc(C#N)cn1` the concentration was 659 nM.
With `COC(=O)c1cc(Cl)ccc1N(C)C(=O)c1ccn2ncc(-c3ccc(C(N)=O)cc3)c2c1` the concentration was 32.5 nM.

Other studies, line by line
With `COc1ccc(-c2c(Nc3ccccn3)[nH]c3c(C4=CCCCC4)c(-c4ccccc4)nn3c2=O)cc1` the SDMA H-score was 180 (immunohistochemistry; human, tumour biopsy; 200 mg twice daily, cycle 1 day 28; direction not given).
For `CCOC(=O)[C@@H]1CSCC(=O)N[C@@H](CC)C(=O)N(C)[C@@H](C)C(=O)N[C@@H](CC(C)C)C(=O)N2CCC[C@H]2C(=O)N(CC(C)C)CC(=O)N[C@H](CC(C)C)C(=O)N(C)[C@@H](C)C(=O)N[C@@H](CC(C)C)C(=O)N1C`, the logD was 1.16 (hydrocarbon/water).
`c1ccc2c(-c3nn4c(-c5ccncc5)nnc4s3)c[nH]c2c1` gave a reporter signal of 196% and 192% and 180% and 173% and 240% and 155% and 205% (HEK293T ATF4-firefly luciferase reporter; integrated stress response, item: ATF4; 10 µM, without ISRIB; relative to: DMSO).
`CC(C)n1cnc(-c2ccc(F)cc2)c1-c1ncc(C(=O)Nc2ccc(N3CCN(C)CC3)cc2)[nH]1` — result for “patients with Tri-iodothyronine increased”: 0% (human, idiopathic pulmonary fibrosis; 60 mg once daily, trial, treatment-emergent).

Excerpt of the above (study 5):
The concentration of `CCOC(=O)CN(C(=O)c1ccn2ncc(-c3ccc(C(=O)NC)cc3)c2c1)c1ccc(Cl)cc1` is reported as 293 nM.
With `CN(C(=O)c1ccn2ncc(-c3ccc(C(N)=O)cc3)c2c1)c1ccc(C#N)cn1` the concentration was 659 nM.
With `COC(=O)c1cc(Cl)ccc1N(C)C(=O)c1ccn2ncc(-c3ccc(C(N)=O)cc3)c2c1` the concentration was 32.5 nM.
